# Measured values pooled from the literature.
# Each line is one published result; not all experiments were run side by side. “And” joins repeats or separate records; there may be more than shown. ± marks the error that the study gave.
# Chain of UniProt Q96Q15 (whole entry, looked up): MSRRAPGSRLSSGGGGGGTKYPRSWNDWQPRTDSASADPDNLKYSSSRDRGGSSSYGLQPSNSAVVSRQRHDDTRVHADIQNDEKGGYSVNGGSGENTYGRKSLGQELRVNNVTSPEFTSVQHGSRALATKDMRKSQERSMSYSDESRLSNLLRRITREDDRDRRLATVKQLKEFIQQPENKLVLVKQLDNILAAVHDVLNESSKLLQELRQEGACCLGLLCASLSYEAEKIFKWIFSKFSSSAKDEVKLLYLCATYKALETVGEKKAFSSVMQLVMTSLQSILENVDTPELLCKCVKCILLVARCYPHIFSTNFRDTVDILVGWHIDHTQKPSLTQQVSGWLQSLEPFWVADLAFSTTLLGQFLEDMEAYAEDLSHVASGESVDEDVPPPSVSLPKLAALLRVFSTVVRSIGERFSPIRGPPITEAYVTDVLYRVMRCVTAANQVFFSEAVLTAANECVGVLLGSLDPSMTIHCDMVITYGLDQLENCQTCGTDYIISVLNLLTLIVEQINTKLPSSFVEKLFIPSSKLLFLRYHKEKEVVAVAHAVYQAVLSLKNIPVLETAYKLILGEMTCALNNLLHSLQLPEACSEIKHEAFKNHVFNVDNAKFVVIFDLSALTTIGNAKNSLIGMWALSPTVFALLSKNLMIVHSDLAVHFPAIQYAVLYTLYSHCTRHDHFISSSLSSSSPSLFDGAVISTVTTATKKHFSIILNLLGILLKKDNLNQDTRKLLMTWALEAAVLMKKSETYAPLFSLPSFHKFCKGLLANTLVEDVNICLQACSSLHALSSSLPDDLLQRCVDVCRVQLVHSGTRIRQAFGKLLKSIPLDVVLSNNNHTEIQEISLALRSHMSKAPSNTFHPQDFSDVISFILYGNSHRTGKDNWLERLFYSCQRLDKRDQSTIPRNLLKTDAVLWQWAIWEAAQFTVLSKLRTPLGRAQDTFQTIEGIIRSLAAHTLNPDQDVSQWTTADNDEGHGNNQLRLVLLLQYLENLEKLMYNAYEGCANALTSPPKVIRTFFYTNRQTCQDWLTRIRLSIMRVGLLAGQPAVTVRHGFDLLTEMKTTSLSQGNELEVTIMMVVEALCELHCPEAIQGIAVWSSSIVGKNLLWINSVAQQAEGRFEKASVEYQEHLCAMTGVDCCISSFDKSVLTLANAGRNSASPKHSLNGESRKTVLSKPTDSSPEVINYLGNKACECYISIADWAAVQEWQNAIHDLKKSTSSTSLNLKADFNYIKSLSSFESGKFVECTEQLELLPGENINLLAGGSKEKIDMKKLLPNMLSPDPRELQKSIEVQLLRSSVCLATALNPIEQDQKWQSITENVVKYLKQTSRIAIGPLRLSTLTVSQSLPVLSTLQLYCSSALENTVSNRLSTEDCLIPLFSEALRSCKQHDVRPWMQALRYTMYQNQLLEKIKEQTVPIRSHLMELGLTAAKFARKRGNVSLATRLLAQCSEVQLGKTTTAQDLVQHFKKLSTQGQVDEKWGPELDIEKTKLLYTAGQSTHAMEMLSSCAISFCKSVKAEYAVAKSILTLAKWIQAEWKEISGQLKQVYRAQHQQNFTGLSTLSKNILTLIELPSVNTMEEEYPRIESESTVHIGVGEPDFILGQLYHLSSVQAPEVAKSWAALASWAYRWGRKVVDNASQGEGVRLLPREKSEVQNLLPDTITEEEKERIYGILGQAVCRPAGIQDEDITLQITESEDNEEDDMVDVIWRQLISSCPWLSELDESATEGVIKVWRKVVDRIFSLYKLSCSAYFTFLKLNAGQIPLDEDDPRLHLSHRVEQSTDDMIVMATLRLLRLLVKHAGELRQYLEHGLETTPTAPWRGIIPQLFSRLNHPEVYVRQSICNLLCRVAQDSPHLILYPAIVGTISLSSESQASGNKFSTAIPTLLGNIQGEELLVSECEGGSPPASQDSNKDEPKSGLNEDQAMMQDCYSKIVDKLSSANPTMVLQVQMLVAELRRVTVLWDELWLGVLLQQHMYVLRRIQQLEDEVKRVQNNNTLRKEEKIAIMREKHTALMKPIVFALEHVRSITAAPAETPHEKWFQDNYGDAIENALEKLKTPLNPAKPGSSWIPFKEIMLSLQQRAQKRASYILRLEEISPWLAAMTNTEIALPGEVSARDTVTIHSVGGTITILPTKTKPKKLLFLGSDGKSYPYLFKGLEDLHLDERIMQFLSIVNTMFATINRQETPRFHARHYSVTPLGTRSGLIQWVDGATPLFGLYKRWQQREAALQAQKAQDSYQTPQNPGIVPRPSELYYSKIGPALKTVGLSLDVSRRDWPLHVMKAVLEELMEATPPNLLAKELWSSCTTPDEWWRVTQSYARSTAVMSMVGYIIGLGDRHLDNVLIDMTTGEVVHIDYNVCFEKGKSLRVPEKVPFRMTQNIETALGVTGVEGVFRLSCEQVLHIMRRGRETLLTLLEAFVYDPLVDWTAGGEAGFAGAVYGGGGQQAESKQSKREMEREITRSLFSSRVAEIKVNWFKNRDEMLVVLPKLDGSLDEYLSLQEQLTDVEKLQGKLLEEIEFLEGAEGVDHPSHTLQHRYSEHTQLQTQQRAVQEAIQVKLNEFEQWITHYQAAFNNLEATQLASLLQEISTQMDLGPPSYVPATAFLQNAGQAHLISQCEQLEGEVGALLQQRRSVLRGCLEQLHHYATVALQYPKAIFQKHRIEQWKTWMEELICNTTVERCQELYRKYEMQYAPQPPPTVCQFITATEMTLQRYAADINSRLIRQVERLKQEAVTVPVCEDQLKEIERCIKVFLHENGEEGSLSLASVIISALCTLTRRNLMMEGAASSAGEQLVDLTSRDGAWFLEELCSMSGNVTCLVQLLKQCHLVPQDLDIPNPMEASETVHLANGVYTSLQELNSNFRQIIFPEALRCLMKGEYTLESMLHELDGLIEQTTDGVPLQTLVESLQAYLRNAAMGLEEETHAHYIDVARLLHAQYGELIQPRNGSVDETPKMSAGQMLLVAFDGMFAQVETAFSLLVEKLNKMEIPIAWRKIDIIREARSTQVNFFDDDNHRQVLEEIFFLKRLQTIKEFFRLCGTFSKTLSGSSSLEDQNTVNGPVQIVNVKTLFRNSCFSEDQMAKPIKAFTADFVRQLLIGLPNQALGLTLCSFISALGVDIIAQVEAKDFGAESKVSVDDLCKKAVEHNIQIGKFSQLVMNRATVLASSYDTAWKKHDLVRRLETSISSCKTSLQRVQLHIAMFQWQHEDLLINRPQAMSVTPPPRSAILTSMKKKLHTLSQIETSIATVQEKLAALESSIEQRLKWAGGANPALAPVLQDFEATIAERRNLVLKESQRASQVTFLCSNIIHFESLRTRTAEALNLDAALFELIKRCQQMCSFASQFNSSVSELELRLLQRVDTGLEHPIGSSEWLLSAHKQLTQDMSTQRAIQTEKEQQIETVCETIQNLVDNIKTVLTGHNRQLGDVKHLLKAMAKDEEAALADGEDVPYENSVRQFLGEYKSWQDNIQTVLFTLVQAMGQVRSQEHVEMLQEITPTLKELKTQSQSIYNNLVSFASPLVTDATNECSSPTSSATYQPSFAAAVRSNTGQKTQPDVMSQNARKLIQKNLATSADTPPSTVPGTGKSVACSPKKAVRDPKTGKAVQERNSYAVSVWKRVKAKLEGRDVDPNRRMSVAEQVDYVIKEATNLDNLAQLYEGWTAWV
# Chain of UniProt Q9UF33 (whole entry, looked up): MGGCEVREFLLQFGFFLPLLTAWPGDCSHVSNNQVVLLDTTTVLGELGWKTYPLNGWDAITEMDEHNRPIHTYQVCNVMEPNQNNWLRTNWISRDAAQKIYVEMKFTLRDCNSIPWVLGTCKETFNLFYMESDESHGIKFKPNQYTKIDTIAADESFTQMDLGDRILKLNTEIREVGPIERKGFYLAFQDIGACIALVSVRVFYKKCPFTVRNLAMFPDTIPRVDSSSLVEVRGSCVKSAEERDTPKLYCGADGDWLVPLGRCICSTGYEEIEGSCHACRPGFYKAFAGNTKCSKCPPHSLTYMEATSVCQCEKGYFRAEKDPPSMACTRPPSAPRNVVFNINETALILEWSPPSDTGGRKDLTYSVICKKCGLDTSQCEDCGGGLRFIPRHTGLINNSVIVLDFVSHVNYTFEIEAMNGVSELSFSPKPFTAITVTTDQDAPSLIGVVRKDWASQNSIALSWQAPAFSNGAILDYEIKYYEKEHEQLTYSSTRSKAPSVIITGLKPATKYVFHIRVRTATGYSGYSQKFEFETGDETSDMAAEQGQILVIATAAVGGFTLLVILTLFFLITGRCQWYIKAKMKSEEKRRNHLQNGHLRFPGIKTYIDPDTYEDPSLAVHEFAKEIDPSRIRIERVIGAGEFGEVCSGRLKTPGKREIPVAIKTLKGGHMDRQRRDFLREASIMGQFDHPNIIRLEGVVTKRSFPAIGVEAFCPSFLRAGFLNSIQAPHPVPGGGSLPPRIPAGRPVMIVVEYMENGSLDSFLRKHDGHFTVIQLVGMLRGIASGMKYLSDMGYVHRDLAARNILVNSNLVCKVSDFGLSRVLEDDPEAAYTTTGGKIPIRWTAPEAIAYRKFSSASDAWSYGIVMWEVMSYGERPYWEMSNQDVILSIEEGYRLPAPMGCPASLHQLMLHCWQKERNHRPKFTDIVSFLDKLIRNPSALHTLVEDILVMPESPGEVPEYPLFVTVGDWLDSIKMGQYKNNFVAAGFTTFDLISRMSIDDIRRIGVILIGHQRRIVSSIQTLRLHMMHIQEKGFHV
Structure (SMILES),tested on,assay,system,setting,scale,quantity,result
COc1ccccc1-c1n[nH]c2nc(N[C@H]3CC[C@H](NS(=O)(=O)CC(C)C)CC3)ncc12,,"bead binding, competition bead pull-down, refers to: LINJ.35.1490",Leishmania donovani extract,10 µM,baseline: vehicle,relative abundance,0.87
CCCCCCCCCCCC1CC(=O)NC(CC(N)=O)C(=O)NC(Cc2ccc(O)cc2)C(=O)NC(CC(N)=O)C(=O)NC(CCC(N)=O)C(=O)N2CCCC2C(=O)NC(CC(N)=O)C(=O)NC(CO)C(=O)N1 (stereo not drawn),,calcein leakage,DOPC/DOPG/CHOL liposomes,"concentration not given, together with: 20 wt% PEG-8000",,maximum fusion,64 ± 8%
Cc1ccc(S(=O)(=O)N2CC2C(=O)N(C)C)cc1 (stereo not drawn),,,"mouse, Lewis lung carcinoma","intraperitoneal, 170 mg/kg, 16 doses, day 12",,tumour volume,681 mm3
O=C1NC2(CC2)COc2ncc(F)cc2[C@H]2COCCN2c2ccn3ncc1c3n2,,,"Sprague-Dawley rat, female, serum","oral, 10 mg/kg/day, end of treatment, 4-week subacute toxicity",,serum urea,5.66 ± 1.08 mmol/L
O=[N+]([O-])[O-].O=c1c(C=NN=C([S-])Nc2ccccc2)coc2ccccc12.[Cu+2].c1cnc2c(c1)c1nccnc1c1cccnc12,,oxidative DNA cleavage,supercoiled pUC19 DNA,"100 µM, 30 min, together with: ascorbic acid 50 µM, DNA 40 µM",,supercoiled DNA form,40%
COc1ccccc1-c1n[nH]c2nc(NC3CCN(C(=O)Cc4ccc(F)cc4F)CC3)ncc12,,"bead binding, competition bead pull-down, refers to: LINJ.35.1490",Leishmania donovani extract,10 µM,baseline: vehicle,relative abundance,1.1
CC(C)[C@H]1NC(=O)C[C@H]2/C=C/CCSSC[C@@H](NC1=O)C(=O)N[C@H](Cc1cccc3ccccc13)C(=O)NCC(=O)O2,"Ephrin type-A receptor 6 (EPHA6, Homo sapiens, UniProt Q9UF33)","enzyme activity, inhibitor",,10 µM,,inhibition,-18.9%
C(=N\Cc1cc(C/N=C/c2cccs2)cc(-c2cc(C/N=C/c3cccs3)cc(C/N=C/c3cccs3)c2)c1)/c1cccs1,,,"hACE2 mice, bronchoalveolar lavage fluid",dose not given,baseline: control,IL-18 level,decreased
CC(C)[C@@H]1NC(=O)[C@@H]2CCCN2C(=O)[C@@H](C(C)C)NC(=O)[C@H]2CCCN2C(=O)[C@H](C(C)C)NC(=O)[C@@H]2CCCN2C(=O)[C@@H](C(C)C)NC(=O)[C@H]2CCCN2C(=O)[C@H](C(C)C)NC(=O)[C@@H]2CCCN2C(=O)[C@@H](C(C)C)NC(=O)[C@H]2CCCN2C1=O,,,sheep lipid bilayer,"10 µM, pH 7.4, 23 °C, together with: Cs cation",,transference number,0.92
CC(C)C[C@@H]1NC(=O)[C@@H](Cc2c[nH]c3ccccc23)NC(=O)[C@H](CCCNC(=N)N)NC(=O)[C@@H](CCC(=O)O)NC(=O)[C@H](CCC(N)=O)NC(=O)[C@@H](CCC(=O)O)NC(=O)[C@H](CCCNC(=N)N)NC(=O)[C@@H](Cc2c[nH]c3ccccc23)NC1=O,,"Luminex, refers to: RANTES","LDLr-/- mice, Western diet, liver","dose not given, 4 weeks",,cytokine level,71 ± 61 pg/g tissue
Cc1cc(C(=O)Nc2nc3cccc(C)c3n2[C@H]2CCCCN(C(=O)/C=C/CN(C)C)C2)ccn1,Trypanosoma brucei brucei,,2T1 CLK1 C215S overexpressing,"0.00343 µM, 72 h",,survival,107% and 104% and 103% and 106% and 102% and 101%
CC(C)(C)C(=O)OCOP(=O)(OCOC(=O)C(C)(C)C)C1CCCN(O)C1=O (stereo not drawn),RXF 393,,,,,log TGI,-5.76 log M
CN(C)[C@H]1C[C@@]23CC[C@@]4(O2)C(=CC[C@]2(C)[C@@H](c5ccc6ccncc6c5)CC[C@H]24)C=C3[C@@H](O)[C@@H]1O,"Serine/threonine-protein kinase SMG1 (SMG1, Homo sapiens, UniProt Q96Q15)","ATP probe labelling, inhibitor, KiNativ profiling",,0.1 µM,,inhibition,-0.9%
O=C(O)c1ccc(-c2nc(-c3ccccc3Cl)c3sccn23)cc1,,,C57BL/6 mice,"dose not given, days 3 and 4 pooled, basal hematopoiesis",,platelet count change,174% and 106% and 93.9% and 160% and 105% and 90.7% and 132%
CCCC[C@@H]1NC(=O)[C@H](Cc2ccc(O)cc2)NC(=O)[C@@H]2CCCN2C(=O)[C@H](CC(=O)O)NC(=O)[C@H](C)NC(=O)[C@H](Cc2ccccc2)NC(=O)[C@@H]2CSCCC(=O)N3CN(CN(C3)C(=O)CCSC[C@@H](C(=O)N[C@@H](C)C(N)=O)NC1=O)C(=O)CCSC[C@H](NC(C)=O)C(=O)N[C@@H](CC(C)(C)C)C(=O)N1CCC[C@H]1C(=O)N[C@@H](CCC(=O)O)C(=O)N[C@H](CCCCNC(=O)CCc1cn(CCOCCOCCOCCN(CCOCCOCCOCCC(=O)N[C@H]3CSCCC(=O)N4CN5CN(C4)C(=O)CCSC[C@H](NC(=O)[C@@H](CC(=O)O)NC(=O)[C@H](Cc4cccc6ccccc46)NC(=O)[C@@H]4CCCN4C3=O)C(=O)N[C@@H](CCSC)C(=O)N[C@@H](CCCCNC(=N)N)C(=O)N[C@@H](CC(=O)O)C(=O)N[C@@H](Cc3c[nH]c4ccccc34)C(=O)N[C@@H](CO)C(=O)N[C@@H]([C@@H](C)O)C(=O)N3CCC[C@H]3C(=O)N3C[C@H](O)C[C@H]3C(=O)N[C@@H](Cc3c[nH]c4ccccc34)C(=O)N[C@H](C(N)=O)CSCCC5=O)CCOCCOCCOCCn3cc(CCC(=O)NCCCC[C@H]4NC(=O)[C@H](CCC(=O)O)NC(=O)[C@@H]5CCCN5C(=O)[C@H](CC(C)(C)C)NC(=O)[C@@H](NC(C)=O)CSCCC(=O)N5CN6CN(C5)C(=O)CCSC[C@H](NC(=O)[C@H](Cc5ccc(O)cc5)NC(=O)[C@@H]5CCCN5C4=O)C(=O)N[C@@H](Cc4ccccc4)C(=O)N[C@@H](C)C(=O)N[C@@H](CC(=O)O)C(=O)N4CCC[C@H]4C(=O)N[C@@H](Cc4ccc(O)cc4)C(=O)N[C@@H](CCCC)C(=O)N[C@H](C(=O)N[C@@H](C)C(N)=O)CSCCC6=O)nn3)nn1)C(=O)N1CCC[C@H]1C(=O)N[C@@H](Cc1ccc(O)cc1)C(=O)N2,,"NanoString, refers to: Cd1d1-mRNA","mouse bearing MC38-Nectin-4 tumour, circulating white blood cells","5 mg/kg, 24 h after dosing, unit not given",baseline: vehicle,mRNA level,1.62

# Repeated from above:
Structure (SMILES),tested on,assay,system,setting,scale,quantity,result
CC(C)C[C@@H]1NC(=O)[C@@H](Cc2c[nH]c3ccccc23)NC(=O)[C@H](CCCNC(=N)N)NC(=O)[C@@H](CCC(=O)O)NC(=O)[C@H](CCC(N)=O)NC(=O)[C@@H](CCC(=O)O)NC(=O)[C@H](CCCNC(=N)N)NC(=O)[C@@H](Cc2c[nH]c3ccccc23)NC1=O,,"Luminex, refers to: RANTES","LDLr-/- mice, Western diet, liver","dose not given, 4 weeks",,cytokine level,71 ± 61 pg/g tissue
O=[N+]([O-])[O-].O=c1c(C=NN=C([S-])Nc2ccccc2)coc2ccccc12.[Cu+2].c1cnc2c(c1)c1nccnc1c1cccnc12,,oxidative DNA cleavage,supercoiled pUC19 DNA,"100 µM, 30 min, together with: ascorbic acid 50 µM, DNA 40 µM",,supercoiled DNA form,40%
